Assay results of several laboratories.
Protocols differ between the studies behind these lines.
ESR1: Estrogen receptor (ESR1, Homo sapiens, UniProt P03372)
Sequence of UniProt P03372 (whole entry, looked up): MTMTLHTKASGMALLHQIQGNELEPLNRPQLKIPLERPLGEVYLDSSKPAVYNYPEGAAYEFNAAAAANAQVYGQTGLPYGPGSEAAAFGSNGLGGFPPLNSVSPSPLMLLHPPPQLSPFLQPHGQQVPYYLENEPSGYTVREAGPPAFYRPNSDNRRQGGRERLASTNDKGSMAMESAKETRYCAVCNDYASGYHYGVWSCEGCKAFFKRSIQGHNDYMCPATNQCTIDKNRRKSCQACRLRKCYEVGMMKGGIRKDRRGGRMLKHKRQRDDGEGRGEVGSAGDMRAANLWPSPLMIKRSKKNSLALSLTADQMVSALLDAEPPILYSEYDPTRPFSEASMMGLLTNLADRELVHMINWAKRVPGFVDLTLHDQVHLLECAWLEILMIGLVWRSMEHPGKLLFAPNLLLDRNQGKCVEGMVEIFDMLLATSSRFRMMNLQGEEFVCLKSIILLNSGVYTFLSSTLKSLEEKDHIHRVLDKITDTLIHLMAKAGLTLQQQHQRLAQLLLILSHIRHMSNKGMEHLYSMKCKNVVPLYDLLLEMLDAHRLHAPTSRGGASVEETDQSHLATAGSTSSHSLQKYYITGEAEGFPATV
ADORA1: Adenosine receptor A1 (ADORA1, Homo sapiens, UniProt P30542)
Sequence of UniProt P30542 (whole entry, looked up): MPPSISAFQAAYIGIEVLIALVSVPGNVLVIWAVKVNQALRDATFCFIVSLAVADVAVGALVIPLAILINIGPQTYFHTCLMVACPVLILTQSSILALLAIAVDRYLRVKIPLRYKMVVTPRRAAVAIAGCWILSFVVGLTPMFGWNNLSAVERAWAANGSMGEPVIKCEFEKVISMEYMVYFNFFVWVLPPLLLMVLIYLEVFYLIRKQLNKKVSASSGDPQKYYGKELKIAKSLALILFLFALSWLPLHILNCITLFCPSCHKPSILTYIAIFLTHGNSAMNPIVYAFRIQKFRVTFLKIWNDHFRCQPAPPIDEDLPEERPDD
C3AR1: C3a anaphylatoxin chemotactic receptor (C3AR1, Homo sapiens, UniProt Q16581)
Sequence of UniProt Q16581 (whole entry, looked up): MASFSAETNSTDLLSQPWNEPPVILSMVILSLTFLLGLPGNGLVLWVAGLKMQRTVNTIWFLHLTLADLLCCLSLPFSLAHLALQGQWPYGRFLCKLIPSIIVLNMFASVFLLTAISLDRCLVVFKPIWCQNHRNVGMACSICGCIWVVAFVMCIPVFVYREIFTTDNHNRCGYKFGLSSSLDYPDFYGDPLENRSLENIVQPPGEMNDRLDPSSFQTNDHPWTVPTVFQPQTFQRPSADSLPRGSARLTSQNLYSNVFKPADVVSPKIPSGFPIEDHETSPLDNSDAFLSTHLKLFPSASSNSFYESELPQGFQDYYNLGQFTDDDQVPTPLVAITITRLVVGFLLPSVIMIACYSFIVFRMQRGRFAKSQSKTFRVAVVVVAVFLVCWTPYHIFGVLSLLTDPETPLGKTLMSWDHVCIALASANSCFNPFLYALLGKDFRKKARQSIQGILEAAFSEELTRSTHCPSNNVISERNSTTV
ESR2: Estrogen receptor beta (ESR2, Homo sapiens, UniProt Q92731)
Sequence of UniProt Q92731 (whole entry, looked up): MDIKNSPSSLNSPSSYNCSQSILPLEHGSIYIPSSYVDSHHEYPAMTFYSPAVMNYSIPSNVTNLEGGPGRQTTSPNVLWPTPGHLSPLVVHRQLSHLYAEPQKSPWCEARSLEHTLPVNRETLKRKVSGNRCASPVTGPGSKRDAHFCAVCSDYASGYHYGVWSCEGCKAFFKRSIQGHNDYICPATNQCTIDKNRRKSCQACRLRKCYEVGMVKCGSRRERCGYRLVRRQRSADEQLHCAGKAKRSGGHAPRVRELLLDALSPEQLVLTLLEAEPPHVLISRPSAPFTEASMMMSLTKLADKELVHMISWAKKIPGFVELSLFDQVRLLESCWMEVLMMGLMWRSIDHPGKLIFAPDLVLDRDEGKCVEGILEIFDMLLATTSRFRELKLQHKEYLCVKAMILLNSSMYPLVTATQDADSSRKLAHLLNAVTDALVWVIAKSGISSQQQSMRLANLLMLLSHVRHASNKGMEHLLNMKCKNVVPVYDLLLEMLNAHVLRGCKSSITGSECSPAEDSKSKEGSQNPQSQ
Sequence of UniProt P08912 (whole entry, looked up): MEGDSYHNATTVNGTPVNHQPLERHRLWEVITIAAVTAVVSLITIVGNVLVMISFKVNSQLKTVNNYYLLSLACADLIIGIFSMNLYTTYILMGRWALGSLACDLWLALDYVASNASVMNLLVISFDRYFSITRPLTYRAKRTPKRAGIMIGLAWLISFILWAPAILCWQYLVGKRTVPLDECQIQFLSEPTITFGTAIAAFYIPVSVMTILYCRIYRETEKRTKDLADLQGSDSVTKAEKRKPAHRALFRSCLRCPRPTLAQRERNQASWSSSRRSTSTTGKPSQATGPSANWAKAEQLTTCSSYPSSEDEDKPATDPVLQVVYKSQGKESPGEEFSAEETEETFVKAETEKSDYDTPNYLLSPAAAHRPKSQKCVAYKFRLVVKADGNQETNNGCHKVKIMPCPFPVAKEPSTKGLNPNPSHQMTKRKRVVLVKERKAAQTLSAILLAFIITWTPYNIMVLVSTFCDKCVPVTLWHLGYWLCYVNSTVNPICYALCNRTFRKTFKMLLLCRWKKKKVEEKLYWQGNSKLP
Sequence of UniProt Q01726 (whole entry, unmodified, looked up): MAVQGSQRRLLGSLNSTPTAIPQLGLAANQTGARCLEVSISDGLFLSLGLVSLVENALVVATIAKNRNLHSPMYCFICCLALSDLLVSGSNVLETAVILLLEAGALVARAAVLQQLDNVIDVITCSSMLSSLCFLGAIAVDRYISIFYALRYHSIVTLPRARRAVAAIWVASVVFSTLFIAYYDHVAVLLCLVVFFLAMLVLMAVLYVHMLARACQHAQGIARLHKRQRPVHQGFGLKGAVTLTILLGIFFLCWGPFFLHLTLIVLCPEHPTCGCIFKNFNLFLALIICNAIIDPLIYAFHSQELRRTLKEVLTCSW
Sequence of UniProt P19793 (whole entry, looked up): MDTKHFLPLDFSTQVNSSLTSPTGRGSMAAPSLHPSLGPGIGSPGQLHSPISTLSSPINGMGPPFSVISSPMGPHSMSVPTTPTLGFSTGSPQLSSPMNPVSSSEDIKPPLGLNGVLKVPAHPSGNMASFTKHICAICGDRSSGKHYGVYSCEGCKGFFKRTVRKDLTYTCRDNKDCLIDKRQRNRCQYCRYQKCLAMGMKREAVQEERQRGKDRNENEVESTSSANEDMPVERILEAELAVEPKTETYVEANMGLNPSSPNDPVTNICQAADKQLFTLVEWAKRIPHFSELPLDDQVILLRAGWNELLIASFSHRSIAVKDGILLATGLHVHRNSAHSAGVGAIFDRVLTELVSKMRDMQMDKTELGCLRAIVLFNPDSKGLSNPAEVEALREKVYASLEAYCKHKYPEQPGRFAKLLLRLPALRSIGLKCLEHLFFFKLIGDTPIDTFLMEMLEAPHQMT
Sequence of UniProt Q9NYW4 (whole entry, looked up): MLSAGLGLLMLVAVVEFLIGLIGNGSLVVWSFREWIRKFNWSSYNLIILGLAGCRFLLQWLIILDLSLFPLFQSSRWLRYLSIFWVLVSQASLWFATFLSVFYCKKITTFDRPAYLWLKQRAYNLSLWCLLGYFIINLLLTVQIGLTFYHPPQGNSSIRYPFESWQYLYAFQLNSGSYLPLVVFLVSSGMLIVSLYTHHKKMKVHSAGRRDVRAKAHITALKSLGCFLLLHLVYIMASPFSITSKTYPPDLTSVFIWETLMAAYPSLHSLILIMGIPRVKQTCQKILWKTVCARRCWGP
Sequence of UniProt Q16602 (whole entry, looked up): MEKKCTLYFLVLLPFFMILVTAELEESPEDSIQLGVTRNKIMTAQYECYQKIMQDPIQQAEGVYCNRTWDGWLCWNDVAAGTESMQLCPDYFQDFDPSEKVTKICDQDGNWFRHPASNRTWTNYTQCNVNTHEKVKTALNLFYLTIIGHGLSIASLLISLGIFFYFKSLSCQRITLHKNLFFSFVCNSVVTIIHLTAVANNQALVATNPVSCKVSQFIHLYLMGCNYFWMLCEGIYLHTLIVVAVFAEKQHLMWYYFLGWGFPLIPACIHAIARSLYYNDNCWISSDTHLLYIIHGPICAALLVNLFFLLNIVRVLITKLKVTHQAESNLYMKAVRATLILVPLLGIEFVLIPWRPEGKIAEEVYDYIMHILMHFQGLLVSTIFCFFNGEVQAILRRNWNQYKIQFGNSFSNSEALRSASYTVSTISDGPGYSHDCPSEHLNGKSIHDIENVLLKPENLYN
Sequence of UniProt P14867 (whole entry, looked up): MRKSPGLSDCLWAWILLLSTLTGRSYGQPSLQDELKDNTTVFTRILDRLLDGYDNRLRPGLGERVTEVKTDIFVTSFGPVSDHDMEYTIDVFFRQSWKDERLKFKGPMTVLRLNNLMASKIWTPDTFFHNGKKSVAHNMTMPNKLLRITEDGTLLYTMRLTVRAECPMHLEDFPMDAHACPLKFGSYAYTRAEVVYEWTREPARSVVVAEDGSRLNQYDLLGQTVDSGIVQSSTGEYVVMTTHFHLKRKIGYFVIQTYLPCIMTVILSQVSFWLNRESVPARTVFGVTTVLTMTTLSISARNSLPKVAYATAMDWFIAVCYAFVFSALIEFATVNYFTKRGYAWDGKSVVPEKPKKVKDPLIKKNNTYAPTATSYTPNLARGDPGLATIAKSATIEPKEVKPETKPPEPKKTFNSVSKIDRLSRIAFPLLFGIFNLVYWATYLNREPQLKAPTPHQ
Sequence of UniProt O60894 (whole entry, looked up): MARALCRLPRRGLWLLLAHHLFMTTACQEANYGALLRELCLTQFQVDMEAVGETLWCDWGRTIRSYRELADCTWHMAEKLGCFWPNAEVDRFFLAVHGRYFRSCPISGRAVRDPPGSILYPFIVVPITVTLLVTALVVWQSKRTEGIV

Structure (SMILES) | target | test | test system | conditions | EC50
O=C1/C(=C\c2cccc(F)c2)Oc2cc(O)ccc21 | ESR1 | coactivator recruitment, agonist |  |  | 1850 nM
CC/C(=C(\c1ccccc1)c1ccc(OCCN(C)CCCCC(=O)NCCc2c[nH]c3ccc(OC)cc23)cc1)c1ccccc1 | MTNR1A (Homo sapiens, UniProt P48039) | phosphorylation in cells, agonist, AlphaScreen |  |  | 253 nM
COc1ccccc1OS(=O)(=O)C1CC2OC1C(c1ccc(O)cc1)=C2c1ccc(O)cc1 (racemic) | ESR1 | reporter gene, agonist, luciferase |  |  | 560 nM
CCNC(=O)[C@H]1O[C@@H](n2cnc3c(NCCCCNC(=O)CCCCCNC(=O)COc4ccc(/C=C/C5=[N+]6C(=Cc7ccc(-c8cccs8)n7[B-]6(F)F)C=C5)cc4)ncnc32)[C@H](O)[C@@H]1O | ADORA1 | CRE-SPAP reporter gene, agonist | CHO-A1 | Gs enhancement, added: forskolin | 417 nM
CCN(C(=O)C1CCN(S(=O)(=O)c2ccc3[nH]ncc3c2)CC1)C1CCc2ccccc21 (racemic) | CHRM5 (Homo sapiens, UniProt P08912) | calcium mobilization, positive allosteric modulator | CHO expressing human M5 | added: acetylcholine EC20 | 1060 nM
N=C(N)NCCC[C@H](NC(=O)[C@H](Cc1ccccc1)NC(=O)[C@@H](N)CO)C(=O)N[C@@H](CC(N)=O)C(N)=O | Neuropeptide S receptor (Mus musculus, UniProt Q8BZP8) | calcium signal, agonist |  |  | 66.6 nM
CCCn1c(=O)c2[nH]c(-c3ccc(OCC(=O)NCCNC(=O)CCCCCNC(=O)CCCCCNS(=O)(=O)c4cccc5c(N(C)C)cccc45)cc3)nc2n(CCC)c1=O | ADORA1 | reporter gene, agonist |  |  | 158 nM
CC(C)C[C@H](NC(=O)[C@@H](N)[C@@H](C)O)C(=O)N[C@@H](CCC(N)=O)C(=O)N1CCC[C@H]1C(=O)N1CCC[C@H]1C(=O)N[C@@H](C)C(=O)N[C@@H](CO)C(=O)N[C@@H](CO)C(=O)N[C@@H](CCCNC(=N)N)C(=O)N[C@@H](CCCNC(=N)N)C(=O)N[C@@H](CCCNC(=N)N)C(=O)N[C@@H](Cc1c[nH]cn1)C(=O)N[C@@H](Cc1ccccc1)C(=O)N[C@@H](Cc1c[nH]cn1)C(=O)N[C@@H](Cc1c[nH]cn1)C(=O)N[C@@H](C)C(=O)N[C@@H](CC(C)C)C(=O)N1CCC[C@H]1C(=O)N1CCC[C@H]1C(=O)N[C@@H](C)C(=O)N[C@@H](CCCNC(=N)N)C(=O)O | C3AR1 | receptor internalization, agonist, ELISA surface expression | HEK293T, β-arrestin2, GRK2 co-expressed | 60 min, 37 °C | 416 nM
CCNC(=O)[C@H]1O[C@@H](n2cnc3c(NCCOCCOCCNC(=O)CCCCCNC(=O)COc4ccc(/C=C/C5=[N+]6C(=Cc7ccc(-c8cccs8)n7[B-]6(F)F)C=C5)cc4)ncnc32)[C@H](O)[C@@H]1O | ADORA1 | CRE-SPAP reporter gene, agonist | CHO-A1 | Gs enhancement, added: forskolin | 1620 nM
CC(C)C[C@H](NC(=O)CNC(=O)[C@H](CC(C)C)NC(=O)[C@H](CCCCN)NC(=O)[C@H](CO)NC(=O)[C@H](C)NC(=O)[C@H](CCCN=C(N)N)NC(=O)[C@H](Cc1ccc(O)cc1)NC(=O)[C@H](CCCCN)NC(=O)[C@H](CCCCN)NC(=O)CNC(=O)[C@H](Cc1c[nH]c2ccccc12)NC(=O)[C@@H](N)Cc1c[nH]c2ccccc12)C(=O)N[C@@H](C)C(=O)N[C@@H](CCCN=C(N)N)C(=O)O | C3AR1 | cAMP, agonist, luciferase |  |  | ~90 nM
CSCC[C@H](NC(=O)[C@H](CC(C)C)NC(=O)[C@H](CCC(N)=O)NC(=O)[C@H](Cc1c[nH]c2ccccc12)NC(=O)[C@H](CC(C)C)NC(=O)[C@H](CCCCN)NC(=O)[C@H](Cc1c[nH]cn1)NC(=O)[C@H](CO)NC(=O)[C@H](CC(C)C)NC(=O)[C@H](CC(N)=O)NC(=O)[C@H](CCC(N)=O)NC(=O)[C@@H](NC(=O)[C@H](CCC(N)=O)NC(=O)[C@@H]1CSSC[C@H](NC(=O)CNC(=O)[C@@H](N)C(C)C)C(=O)N[C@@H](C(C)C)C(=O)N[C@@H](CC(C)C)C(=O)NCC(=O)N[C@@H]([C@@H](C)O)C(=O)N1)C(C)C)C(=O)NCC(=O)N1CCC[C@H]1C(=O)N[C@@H](C)C(=O)NCC(=O)N[C@@H](CCCNC(=N)N)C(=O)N[C@@H](CCC(N)=O)C(=O)N[C@@H](CC(=O)O)C(=O)N[C@@H](CO)C(=O)N[C@@H](C)C(=O)N1CCC[C@H]1C(=O)N[C@H](C(=O)N[C@@H](CC(=O)O)C(=O)N1CCC[C@H]1C(=O)N[C@@H](CO)C(=O)N[C@@H](CO)C(=O)N1CCC[C@H]1C(=O)N[C@@H](Cc1c[nH]cn1)C(=O)N[C@@H](CO)C(=O)N[C@@H](Cc1ccc(O)cc1)C(N)=O)C(C)C | Calcitonin-gene-related peptide receptor, CALCRL/RAMP1 (Homo sapiens, UniProt O60894+Q16602) | cAMP, agonist, CAMYEL BRET | COS-7 | 37 °C | 3.09 nM
CCCC[C@H](NC(=O)[C@H](CO)NC(=O)[C@H](Cc1ccc(O)cc1)NC(=O)[C@H](CO)NC(C)=O)C(=O)N[C@@H](CCC(=O)O)C(=O)N[C@@H](Cc1c[nH]cn1)C(=O)N[C@H](Cc1ccc2ccccc2c1)C(=O)N[C@@H](CCCNC(=N)N)C(=O)N[C@@H](Cc1c[nH]c2ccccc12)C(=O)NCC(=O)N[C@@H](CCCCN)C(=O)N1CCC[C@H]1C(=O)N[C@H](C(=O)NCC(=O)N[C@@H](CCCCN)C(=O)N[C@@H](CCCCN)C(=O)N[C@@H](CCCNC(=N)N)C(N)=O)C(C)C | MC1R (Homo sapiens, UniProt Q01726, M128L) | cAMP, agonist |  |  | > 1000 nM
CSCC[C@H](NC(=O)CNC(=O)[C@H](CCCCN)NC(=O)[C@@H](N)Cc1c[nH]c2ccccc12)C(=O)N[C@H](C(=O)N[C@H](CCSC)C(N)=O)C(C)C | FPR1 (Homo sapiens, UniProt P21462) | binding, flow cytometry competition | U-937 | 4 °C, added: 5 nM WK(FL)YMVm probe | no binding
CC(C)C[C@H](NC(=O)CNC(=O)[C@H](CC(C)C)NC(=O)[C@H](CCCCN)NC(=O)[C@H](CO)NC(=O)[C@H](C)NC(=O)[C@H](CCCN=C(N)N)NC(=O)[C@H](Cc1ccc(O)cc1)NC(=O)[C@H](CCCCN)NC(=O)[C@H](CCCCN)NC(=O)CNC(=O)[C@H](Cc1c[nH]c2ccccc12)NC(=O)[C@@H](N)Cc1c[nH]c2ccccc12)C(=O)N[C@@H](C)C(=O)N[C@@H](CCCN=C(N)N)C(=O)O | C3AR1 | β-arrestin2 recruitment, agonist, BRET |  | 60 min, 37 °C, added: GRK2 co-expression | 5.3 nM
C=CCc1cccc(-c2cc(/C=C/C(=O)O)ccc2O)c1 | RXRA (Homo sapiens, UniProt P19793) | reporter gene, agonist, luciferase |  |  | 6.3 nM
CN(Cc1cccc(F)c1)C(=O)c1ccc(O)c(Cl)c1 | ESR2 | coactivator recruitment, agonist |  |  | 1410 nM
O=S(=O)(Oc1cccc(Cl)c1)C1CC2OC1C(c1ccc(O)cc1)=C2c1ccc(O)cc1 (racemic) | ESR1 | reporter gene, agonist, luciferase |  |  | 210 nM
CN(Cc1ccccc1F)C(=O)c1ccc(O)cc1 | ESR2 | coactivator recruitment, agonist |  |  | 19300 nM
O=C1C(=O)c2cccnc2-c2ncccc21 | TAS2R5 (Homo sapiens, UniProt Q9NYW4) | calcium signal, agonist, fluorescence |  |  | 540 nM
O=C1CCCN1C1CCN(CC2CC(c3ccccc3)=NO2)c2ccccc21 (stereo not drawn) | ABCG2 (Homo sapiens, UniProt Q9UNQ0) | ATPase activity, activator |  | 20 min, pH 6.8, cell membranes | 1640 nM
COc1ccc(C(=O)Nc2c(-c3cccs3)nc3ccccn23)cc1 | Gamma-aminobutyric acid receptor subunit alpha-1/beta-2/delta (Homo sapiens, UniProt O14764+P14867+P47870) | positive allosteric modulator, FLIPR membrane potential | HEK293 Flp-In | added: GABA EC20 | 3680 nM

A few entries again:
Structure (SMILES) | target | test | test system | conditions | EC50
O=C1/C(=C\c2cccc(F)c2)Oc2cc(O)ccc21 | ESR1 | coactivator recruitment, agonist |  |  | 1850 nM
CSCC[C@H](NC(=O)[C@H](CC(C)C)NC(=O)[C@H](CCC(N)=O)NC(=O)[C@H](Cc1c[nH]c2ccccc12)NC(=O)[C@H](CC(C)C)NC(=O)[C@H](CCCCN)NC(=O)[C@H](Cc1c[nH]cn1)NC(=O)[C@H](CO)NC(=O)[C@H](CC(C)C)NC(=O)[C@H](CC(N)=O)NC(=O)[C@H](CCC(N)=O)NC(=O)[C@@H](NC(=O)[C@H](CCC(N)=O)NC(=O)[C@@H]1CSSC[C@H](NC(=O)CNC(=O)[C@@H](N)C(C)C)C(=O)N[C@@H](C(C)C)C(=O)N[C@@H](CC(C)C)C(=O)NCC(=O)N[C@@H]([C@@H](C)O)C(=O)N1)C(C)C)C(=O)NCC(=O)N1CCC[C@H]1C(=O)N[C@@H](C)C(=O)NCC(=O)N[C@@H](CCCNC(=N)N)C(=O)N[C@@H](CCC(N)=O)C(=O)N[C@@H](CC(=O)O)C(=O)N[C@@H](CO)C(=O)N[C@@H](C)C(=O)N1CCC[C@H]1C(=O)N[C@H](C(=O)N[C@@H](CC(=O)O)C(=O)N1CCC[C@H]1C(=O)N[C@@H](CO)C(=O)N[C@@H](CO)C(=O)N1CCC[C@H]1C(=O)N[C@@H](Cc1c[nH]cn1)C(=O)N[C@@H](CO)C(=O)N[C@@H](Cc1ccc(O)cc1)C(N)=O)C(C)C | Calcitonin-gene-related peptide receptor, CALCRL/RAMP1 (Homo sapiens, UniProt O60894+Q16602) | cAMP, agonist, CAMYEL BRET | COS-7 | 37 °C | 3.09 nM
CN(Cc1ccccc1F)C(=O)c1ccc(O)cc1 | ESR2 | coactivator recruitment, agonist |  |  | 19300 nM
